Published values from different studies.
Several values in a cell are separate wells, animals, samples, runs or records. Numbers after ± are the reported error.
BCHE: Cholinesterase (BCHE, Homo sapiens, UniProt P06276)
UniProt P06276, sequence (whole entry, looked up): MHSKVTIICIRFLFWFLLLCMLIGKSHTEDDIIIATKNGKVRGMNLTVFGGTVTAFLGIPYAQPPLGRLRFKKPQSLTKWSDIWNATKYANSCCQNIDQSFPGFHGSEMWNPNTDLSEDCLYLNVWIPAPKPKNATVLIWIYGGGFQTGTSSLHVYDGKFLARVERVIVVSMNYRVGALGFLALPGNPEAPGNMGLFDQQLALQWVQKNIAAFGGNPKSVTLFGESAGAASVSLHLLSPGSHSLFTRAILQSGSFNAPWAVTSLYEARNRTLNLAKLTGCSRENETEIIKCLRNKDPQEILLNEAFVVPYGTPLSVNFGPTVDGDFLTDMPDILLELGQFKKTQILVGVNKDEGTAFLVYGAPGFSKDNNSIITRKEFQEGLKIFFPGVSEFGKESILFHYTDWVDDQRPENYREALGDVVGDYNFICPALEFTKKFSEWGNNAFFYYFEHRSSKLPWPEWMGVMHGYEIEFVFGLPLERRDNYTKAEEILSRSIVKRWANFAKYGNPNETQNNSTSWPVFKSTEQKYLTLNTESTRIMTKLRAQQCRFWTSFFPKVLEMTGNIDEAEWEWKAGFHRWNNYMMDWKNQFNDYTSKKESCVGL
STAT1 SH2 domain: Signal transducer and activator of transcription 1-alpha/beta, SH2 domain (STAT1, Homo sapiens, UniProt P42224)
UniProt P42224, sequence (whole entry, looked up): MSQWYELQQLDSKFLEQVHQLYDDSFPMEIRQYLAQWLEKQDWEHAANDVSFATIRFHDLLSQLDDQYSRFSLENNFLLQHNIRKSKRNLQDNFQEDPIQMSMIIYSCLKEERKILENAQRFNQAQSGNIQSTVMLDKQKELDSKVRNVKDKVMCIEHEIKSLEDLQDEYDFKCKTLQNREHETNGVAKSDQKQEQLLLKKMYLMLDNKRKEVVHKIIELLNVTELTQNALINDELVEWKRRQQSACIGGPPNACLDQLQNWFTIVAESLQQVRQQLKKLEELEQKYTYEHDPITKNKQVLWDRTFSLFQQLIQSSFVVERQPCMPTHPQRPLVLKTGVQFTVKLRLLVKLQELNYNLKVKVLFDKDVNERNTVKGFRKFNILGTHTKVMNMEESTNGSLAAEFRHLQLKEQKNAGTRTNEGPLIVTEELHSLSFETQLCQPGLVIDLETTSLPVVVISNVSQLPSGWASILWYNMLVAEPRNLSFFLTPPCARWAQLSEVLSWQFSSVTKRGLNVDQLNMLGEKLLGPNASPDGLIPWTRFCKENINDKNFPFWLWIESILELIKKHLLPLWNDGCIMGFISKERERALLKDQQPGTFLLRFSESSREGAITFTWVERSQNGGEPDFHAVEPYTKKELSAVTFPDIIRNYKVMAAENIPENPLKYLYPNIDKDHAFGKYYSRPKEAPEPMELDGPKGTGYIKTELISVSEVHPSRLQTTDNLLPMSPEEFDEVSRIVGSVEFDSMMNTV
RASA1 SH2 domains: Ras GTPase-activating protein 1, SH2 domains (RASA1, Homo sapiens, UniProt P20936)
UniProt Q9NWS0, sequence (51-180, unmodified, looked up): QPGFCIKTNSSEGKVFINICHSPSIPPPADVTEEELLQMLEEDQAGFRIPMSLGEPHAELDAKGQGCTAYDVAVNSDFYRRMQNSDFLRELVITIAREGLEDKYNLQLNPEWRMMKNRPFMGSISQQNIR
UniProt P20936, sequence (whole entry, looked up): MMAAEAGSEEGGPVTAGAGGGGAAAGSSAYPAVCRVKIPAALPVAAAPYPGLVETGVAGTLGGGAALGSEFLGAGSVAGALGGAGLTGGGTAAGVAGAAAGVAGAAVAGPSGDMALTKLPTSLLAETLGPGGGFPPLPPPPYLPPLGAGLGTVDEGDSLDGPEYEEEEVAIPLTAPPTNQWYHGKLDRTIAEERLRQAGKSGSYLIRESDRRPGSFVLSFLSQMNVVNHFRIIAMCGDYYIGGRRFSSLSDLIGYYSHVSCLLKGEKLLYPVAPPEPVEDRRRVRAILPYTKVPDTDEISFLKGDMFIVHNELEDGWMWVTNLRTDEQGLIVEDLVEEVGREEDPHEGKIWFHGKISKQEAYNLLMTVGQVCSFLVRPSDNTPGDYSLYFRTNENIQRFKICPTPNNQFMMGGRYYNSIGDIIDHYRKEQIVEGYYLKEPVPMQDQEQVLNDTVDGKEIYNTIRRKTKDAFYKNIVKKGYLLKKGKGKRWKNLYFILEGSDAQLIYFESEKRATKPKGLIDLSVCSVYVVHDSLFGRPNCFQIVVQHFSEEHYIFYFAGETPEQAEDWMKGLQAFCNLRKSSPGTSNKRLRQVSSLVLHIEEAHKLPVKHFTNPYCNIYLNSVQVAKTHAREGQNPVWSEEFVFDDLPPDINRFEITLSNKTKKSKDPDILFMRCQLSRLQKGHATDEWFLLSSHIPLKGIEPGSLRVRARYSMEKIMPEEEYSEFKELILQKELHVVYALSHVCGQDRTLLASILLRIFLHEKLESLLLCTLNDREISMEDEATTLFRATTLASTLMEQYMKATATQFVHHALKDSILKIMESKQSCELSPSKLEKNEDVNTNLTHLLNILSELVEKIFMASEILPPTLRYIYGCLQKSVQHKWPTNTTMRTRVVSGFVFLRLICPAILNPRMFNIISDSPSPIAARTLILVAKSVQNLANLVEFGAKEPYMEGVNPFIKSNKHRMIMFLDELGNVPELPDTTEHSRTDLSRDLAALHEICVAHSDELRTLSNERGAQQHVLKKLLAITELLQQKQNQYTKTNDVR
UniProt P04843, sequence (whole entry, looked up): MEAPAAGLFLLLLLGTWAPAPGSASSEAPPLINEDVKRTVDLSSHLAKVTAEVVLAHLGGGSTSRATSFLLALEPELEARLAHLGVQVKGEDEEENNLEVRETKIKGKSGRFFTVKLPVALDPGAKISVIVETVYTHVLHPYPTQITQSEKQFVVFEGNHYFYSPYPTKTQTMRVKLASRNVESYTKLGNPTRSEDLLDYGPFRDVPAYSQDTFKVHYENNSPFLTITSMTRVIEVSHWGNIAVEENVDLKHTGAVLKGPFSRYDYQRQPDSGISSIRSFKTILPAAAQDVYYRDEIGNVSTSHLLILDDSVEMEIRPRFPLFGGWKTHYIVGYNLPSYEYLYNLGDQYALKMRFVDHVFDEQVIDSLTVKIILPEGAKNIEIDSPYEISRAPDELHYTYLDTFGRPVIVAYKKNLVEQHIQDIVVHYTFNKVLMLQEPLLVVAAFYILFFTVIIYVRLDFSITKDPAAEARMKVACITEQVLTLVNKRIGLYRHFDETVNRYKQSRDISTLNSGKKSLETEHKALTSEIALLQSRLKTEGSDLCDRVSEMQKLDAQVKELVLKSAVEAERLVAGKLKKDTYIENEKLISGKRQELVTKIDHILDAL
UniProt Q92995, sequence (whole entry, looked up): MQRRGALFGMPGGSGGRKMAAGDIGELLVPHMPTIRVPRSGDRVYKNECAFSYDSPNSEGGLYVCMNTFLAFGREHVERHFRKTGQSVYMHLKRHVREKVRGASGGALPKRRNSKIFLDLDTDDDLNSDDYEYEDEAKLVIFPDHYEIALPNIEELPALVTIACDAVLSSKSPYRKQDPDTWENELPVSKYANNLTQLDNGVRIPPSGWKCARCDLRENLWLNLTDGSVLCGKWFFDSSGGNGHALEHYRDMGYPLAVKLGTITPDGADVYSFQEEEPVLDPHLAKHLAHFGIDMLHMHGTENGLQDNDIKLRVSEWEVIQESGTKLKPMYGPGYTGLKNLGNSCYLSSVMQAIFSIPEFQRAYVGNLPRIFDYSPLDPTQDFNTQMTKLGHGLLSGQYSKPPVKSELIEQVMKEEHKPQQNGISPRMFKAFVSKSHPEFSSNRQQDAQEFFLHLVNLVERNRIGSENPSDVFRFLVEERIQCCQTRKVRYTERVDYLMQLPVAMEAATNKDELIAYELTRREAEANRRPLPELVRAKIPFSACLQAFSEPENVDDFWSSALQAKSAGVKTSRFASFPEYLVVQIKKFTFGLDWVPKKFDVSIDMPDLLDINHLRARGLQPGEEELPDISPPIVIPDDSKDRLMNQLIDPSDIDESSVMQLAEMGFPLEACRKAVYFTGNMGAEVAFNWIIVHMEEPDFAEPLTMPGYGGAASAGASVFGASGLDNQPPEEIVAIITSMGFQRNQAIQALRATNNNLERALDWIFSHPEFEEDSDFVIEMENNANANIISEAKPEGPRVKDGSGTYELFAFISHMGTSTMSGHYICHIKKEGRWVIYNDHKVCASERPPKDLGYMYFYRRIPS
UniProt P68082, sequence (whole entry, looked up): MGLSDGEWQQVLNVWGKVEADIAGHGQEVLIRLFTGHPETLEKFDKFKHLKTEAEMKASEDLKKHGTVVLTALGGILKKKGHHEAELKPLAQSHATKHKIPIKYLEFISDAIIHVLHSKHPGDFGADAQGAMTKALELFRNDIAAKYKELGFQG

O=C(NCCCNc1nc(Nc2cccc(CN3CCOCC3)c2)ncc1C1CC1)C1CCC1  IC50 (BCHE; inhibitor; with Triton): 6.01 ± 1.46 µM
CN1C2CCCC1CC(NC(=O)c1nn(C)c3ccccc13)C2 (centres unmarked)  Kd (Soluble acetylcholine receptor (Aplysia californica, UniProt Q8WSF8, K160T/Q74R/S111E/V159L/W164Y); homologous radioligand competition): 7.34 ± 2 µM
CN(CC(=O)O)C(=N)NP(=O)(O)O  Kd (CKMT1A (Homo sapiens, UniProt P12532, E265Q); microscale thermophoresis; pH 7.0, E227Q mutant, no substrate): 227 ± 68 µM
CC[C@H](C)[C@H](NC(=O)c1ccc2c(c1)C(=O)OC21c2ccc(N(C)C)cc2Oc2cc(N(C)C)ccc21)C(=O)N[C@@H](CCC(=O)O)C(=O)N[C@@H](CO)C(=O)N[C@@H](CO)C(=O)N[C@@H](CC(N)=O)C(=O)N[C@@H](Cc1ccc(O)cc1)C(=O)N[C@@H](CCSC)C(=O)N[C@@H](C)C(=O)N1CCC[C@H]1C(=O)N[C@@H](Cc1ccc(OP(=O)(O)O)cc1)C(=O)N[C@@H](CC(=O)O)C(=O)N[C@@H](CC(N)=O)C(=O)N[C@@H](Cc1ccc(O)cc1)C(=O)N[C@H](C(=O)N1CCC[C@H]1C(=O)N[C@@H](CO)C(=O)N[C@@H](C)C(=O)N[C@@H](CC(=O)O)C(=O)O)C(C)C  Kd (STAT1 SH2 domain; binding): 0.978 µM
S  Kd (MB, Fe(III) state (Equus caballus, UniProt P68082); stopped-flow UV-visible titration): 96 ± 12 µM
Nc1ncnc2c1ncn2[C@@H]1O[C@H](COP(=O)(O)OP(=O)(O)O)[C@@H](O)[C@H]1O  Kd (Cell cycle histidine kinase CckA, G318A; cytoplasmic region (Caulobacter vibrioides, UniProt Q9X688, G318A)): 200 µM
NC(=O)N/N=C/c1ccc([N+](=O)[O-])o1  Kd (nfsB (Escherichia coli K-12, UniProt P38489); binding; Escherichia coli): 35 ± 1 µM
CC(C)C[C@H](NC(=O)[C@@H](N)CC(=O)O)C(=O)N[C@@H](CC(=O)O)C(=O)N[C@@H](COP(=O)(O)O)C(=O)N[C@@H](CC(=O)O)C(=O)N[C@@H](CC(=O)O)C(=O)N[C@@H](CCC(=O)O)C(=O)N[C@@H](Cc1ccc(O)cc1)C(=O)O  Kd (PIH1 domain-containing protein 1, residues 51-180 (PIH1D1, Homo sapiens, UniProt Q9NWS0, K64A); binding, ITC; 20 °C): > 112 µM
CC[C@H](C)[C@H](NC(=O)[C@H](CC(=O)O)NC(=O)[C@H](C)NC(=O)[C@H](Cc1ccc(O)cc1)NC(=O)[C@H](CCCCN)NC(=O)c1ccc2c(c1)C(=O)OC21c2ccc(N(C)C)cc2Oc2cc(N(C)C)ccc21)C(=O)N[C@@H](CCC(=O)O)C(=O)N[C@@H](CO)C(=O)N[C@@H](CO)C(=O)N[C@@H](CC(N)=O)C(=O)N[C@@H](Cc1ccc(OP(=O)(O)O)cc1)C(=O)N[C@@H](CCSC)C(=O)N[C@@H](C)C(=O)N1CCC[C@H]1C(=O)N[C@@H](Cc1ccc(O)cc1)C(=O)N[C@@H](CC(=O)O)C(=O)N[C@@H](CC(N)=O)C(=O)N[C@@H](Cc1ccc(O)cc1)C(=O)N[C@@H](CC(=O)O)C(=O)O  Kd (RASA1 SH2 domains; binding): 0.335 µM
CC[C@H]1CN2CC[C@H]1C[C@H]2[C@H](O)c1ccnc2ccc(OC)cc12  IC50 (BCHE; inhibitor; with Triton): 12.5 ± 1.59 µM
CC(C)C[C@H](NC(=O)[C@@H](NC(=O)[C@H](CO)NC(=O)[C@H](CO)NC(=O)[C@@H](NC(=O)[C@H](CC(=O)O)NC(=O)[C@H](CC(C)C)NC(=O)[C@@H]1CCCN1C(=O)[C@H](CO)NC(=O)c1ccc2c(c1)C(=O)OC21c2ccc(N(C)C)cc2Oc2cc(N(C)C)ccc21)[C@@H](C)O)C(C)C)C(=O)N[C@@H](Cc1ccc(OP(=O)(O)O)cc1)C(=O)N[C@H](C(=O)N[C@@H](C)C(=O)N[C@H](C(=O)N[C@@H](CCC(N)=O)C(=O)N1CCC[C@H]1C(=O)N[C@@H](CC(N)=O)C(=O)N[C@@H](CCC(=O)O)C(=O)N[C@@H](CC(=O)O)C(=O)O)C(C)C)[C@@H](C)O  Kd (STAT1 SH2 domain; binding): 1.88 µM
COc1cc(Nc2ncc(F)c(Nc3ccc4c(n3)NC(=O)C(C)(C)O4)n2)cc(OC)c1OC  IC50 (F10 (Homo sapiens, UniProt P00742)): > 10 µM
CC(C)C[C@H](NC(=O)[C@H](Cc1ccc(OP(=O)(O)O)cc1)NC(=O)[C@H](CCC(=O)O)NC(=O)[C@@H]1CCCN1C(=O)[C@H](CC(N)=O)NC(=O)CNC(=O)[C@@H](NC(=O)[C@H](C)NC(=O)[C@@H](NC(=O)[C@H](CO)NC(=O)[C@H](Cc1c[nH]cn1)NC(=O)c1ccc2c(c1)C(=O)OC21c2ccc(N(C)C)cc2Oc2cc(N(C)C)ccc21)[C@@H](C)O)C(C)C)C(=O)N[C@@H](CC(N)=O)C(=O)N[C@H](C(=O)N[C@H](C(=O)N[C@@H](CCC(N)=O)C(=O)N1CCC[C@H]1C(=O)N[C@H](C(=O)N[C@@H](CC(=O)O)C(=O)O)[C@@H](C)O)C(C)C)[C@@H](C)O  Kd (RASA1 SH2 domains; binding): 0.388 µM
NCCc1ccc(O)c(O)c1  Kd (commercial monoclonal antibody; lower = stronger binding): 39 ± 6 µM
C[C@H]1CN(c2n[nH]c3nc(N[C@H]4CC[C@H](NS(=O)(=O)CCC(F)(F)F)CC4)ncc23)CCO1  IC50 (Dolichyl-diphosphooligosaccharide--protein glycosyltransferase subunit 1 (Homo sapiens, UniProt P04843); biochemical): ≥ 20 µM
CC[C@H](C)[C@H](NC(=O)[C@H](Cc1ccc(OP(=O)(O)O)cc1)NC(=O)[C@H](CCC(=O)O)NC(=O)[C@H](Cc1c[nH]cn1)NC(=O)CNC(=O)[C@H](CC(=O)O)NC(=O)[C@H](CO)NC(=O)[C@H](CO)NC(=O)[C@@H](NC(=O)[C@H](CO)NC(=O)[C@H](CCC(=O)O)NC(=O)c1ccc2c(c1)C(=O)OC21c2ccc(N(C)C)cc2Oc2cc(N(C)C)ccc21)C(C)C)C(=O)N[C@@H](Cc1ccc(O)cc1)C(=O)N[C@H](C(=O)N[C@@H](CC(=O)O)C(=O)N1CCC[C@H]1C(=O)N[C@@H](CCSC)C(=O)N[C@@H](CCC(N)=O)C(=O)N[C@@H](CC(=O)O)C(=O)O)C(C)C  Kd (Cytoplasmic tyrosine-protein kinase BMX, SH2 domain (BMX, Homo sapiens, UniProt P51813); binding): 1.54 µM
C/C(=N\NC(=O)c1cccc(S(=O)(=O)N2CCN(C)CC2)c1)c1cc(Cl)ccc1O  Kd (Lysine-specific histone demethylase 1A, N-terminal truncation; with CoREST (KDM1A, Homo sapiens, UniProt O60341)): ~1.3 µM and 1.3 µM
CC[C@H](C)[C@H](NC(=O)[C@H](Cc1c[nH]c2ccccc12)NC(=O)[C@H](C)NC(=O)[C@H](C)NC(=O)[C@H](Cc1ccc(O)cc1)NC(=O)[C@@H](N)CO)C(=O)N[C@@H](CC(=O)O)C(=O)N[C@H](C(=O)N[C@@H](CCC(=O)O)C(=O)N[C@@H](CC(=O)O)C(=O)N[C@@H](CC(C)C)C(=O)O)C(C)C  Kd (Serine protease HTRA1, PDZ domain (Homo sapiens, UniProt Q92743); isothermal titration calorimetry; isolated PDZ domain; pH 8.0): 80 µM
O=C(O)CCCN1CC=C(c2ccccc2)CC1  Kd (Ubiquitin carboxyl-terminal hydrolase 13, ZnF-UBD domain (USP13, Homo sapiens, UniProt Q92995)): 594 µM
CC(C)C[C@H](NC(=O)[C@H](CC(=O)O)NC(=O)[C@H](COP(=O)(O)O)NC(=O)[C@H](CC(=O)O)NC(=O)[C@H](CO)NC(=O)CNC(=O)[C@H](C)NC(=O)[C@@H](N)Cc1ccc(O)cc1)C(=O)N[C@@H](CC(=O)O)C(=O)N[C@@H](COP(=O)(O)O)C(=O)N[C@@H](CC(=O)O)C(=O)N[C@@H](CC(=O)O)C(=O)N[C@@H](CCC(=O)O)C(=O)N[C@@H](Cc1ccccc1)C(=O)N[C@H](C(=O)N1CCC[C@H]1C(=O)N[C@@H](Cc1ccc(O)cc1)C(N)=O)C(C)C  Kd (PIH1 domain-containing protein 1, residues 51-180 (PIH1D1, Homo sapiens, UniProt Q9NWS0); binding, ITC; pH 8.0, 20 °C, PIH-N domain): 1.5 ± 0.2 µM
Nc1nc2c(ncn2[C@@H]2O[C@H](COP(=O)(O)OP(=O)(O)OP(=O)(O)O)[C@@H](O)[C@H]2O)c(=O)[nH]1  Kd (GTP 3',8-cyclase (moaA, Staphylococcus aureus, UniProt P69848, R266A); binding, isothermal titration calorimetry; 25 °C, R266A mutant, anaerobic): 2.22 ± 0.67 µM
O=C1C=CC(=O)c2ccccc21  Kd (Reaction center protein M chain, QA site (pufM, Cereibacter sphaeroides, UniProt P0C0Y9); binding): 8 µM
CSCC[C@H](NC(=O)CNC(=O)[C@H](Cc1ccccc1)NC(=O)[C@H](CC(=O)O)NC(=O)CNC(=O)c1ccc2c(c1)C(=O)OC21c2ccc(N(C)C)cc2Oc2cc(N(C)C)ccc21)C(=O)N[C@@H](CO)C(=O)N[C@@H](CCCNC(=N)N)C(=O)N[C@@H](CC(=O)O)C(=O)N[C@H](C(=O)N[C@@H](Cc1ccc(OP(=O)(O)O)cc1)C(=O)N[C@@H](CO)C(=O)N[C@H](C(=O)N[C@@H](CC(=O)O)C(=O)N[C@@H](Cc1ccc(O)cc1)C(=O)N[C@@H](Cc1ccc(O)cc1)C(=O)N[C@@H](CCCNC(=N)N)C(=O)N[C@H](C(=O)N[C@@H](CC(=O)O)C(=O)O)C(C)C)[C@@H](C)O)C(C)C  Kd (SH2B adapter protein 1, SH2 domain (SH2B1, Homo sapiens, UniProt Q9NRF2); binding): 0.744 µM

A few entries again:
CC[C@H](C)[C@H](NC(=O)[C@H](CC(=O)O)NC(=O)[C@H](C)NC(=O)[C@H](Cc1ccc(O)cc1)NC(=O)[C@H](CCCCN)NC(=O)c1ccc2c(c1)C(=O)OC21c2ccc(N(C)C)cc2Oc2cc(N(C)C)ccc21)C(=O)N[C@@H](CCC(=O)O)C(=O)N[C@@H](CO)C(=O)N[C@@H](CO)C(=O)N[C@@H](CC(N)=O)C(=O)N[C@@H](Cc1ccc(OP(=O)(O)O)cc1)C(=O)N[C@@H](CCSC)C(=O)N[C@@H](C)C(=O)N1CCC[C@H]1C(=O)N[C@@H](Cc1ccc(O)cc1)C(=O)N[C@@H](CC(=O)O)C(=O)N[C@@H](CC(N)=O)C(=O)N[C@@H](Cc1ccc(O)cc1)C(=O)N[C@@H](CC(=O)O)C(=O)O  Kd (RASA1 SH2 domains; binding): 0.335 µM
CSCC[C@H](NC(=O)CNC(=O)[C@H](Cc1ccccc1)NC(=O)[C@H](CC(=O)O)NC(=O)CNC(=O)c1ccc2c(c1)C(=O)OC21c2ccc(N(C)C)cc2Oc2cc(N(C)C)ccc21)C(=O)N[C@@H](CO)C(=O)N[C@@H](CCCNC(=N)N)C(=O)N[C@@H](CC(=O)O)C(=O)N[C@H](C(=O)N[C@@H](Cc1ccc(OP(=O)(O)O)cc1)C(=O)N[C@@H](CO)C(=O)N[C@H](C(=O)N[C@@H](CC(=O)O)C(=O)N[C@@H](Cc1ccc(O)cc1)C(=O)N[C@@H](Cc1ccc(O)cc1)C(=O)N[C@@H](CCCNC(=N)N)C(=O)N[C@H](C(=O)N[C@@H](CC(=O)O)C(=O)O)C(C)C)[C@@H](C)O)C(C)C  Kd (SH2B adapter protein 1, SH2 domain (SH2B1, Homo sapiens, UniProt Q9NRF2); binding): 0.744 µM
